Published values of several laboratories.
Compare with care: the assays were run in different laboratories. ± gives the spread as reported.
CDC48A: CDC48A 1-463 (Arabidopsis thaliana, UniProt P54609)
Chain of UniProt P54609 (whole entry, looked up): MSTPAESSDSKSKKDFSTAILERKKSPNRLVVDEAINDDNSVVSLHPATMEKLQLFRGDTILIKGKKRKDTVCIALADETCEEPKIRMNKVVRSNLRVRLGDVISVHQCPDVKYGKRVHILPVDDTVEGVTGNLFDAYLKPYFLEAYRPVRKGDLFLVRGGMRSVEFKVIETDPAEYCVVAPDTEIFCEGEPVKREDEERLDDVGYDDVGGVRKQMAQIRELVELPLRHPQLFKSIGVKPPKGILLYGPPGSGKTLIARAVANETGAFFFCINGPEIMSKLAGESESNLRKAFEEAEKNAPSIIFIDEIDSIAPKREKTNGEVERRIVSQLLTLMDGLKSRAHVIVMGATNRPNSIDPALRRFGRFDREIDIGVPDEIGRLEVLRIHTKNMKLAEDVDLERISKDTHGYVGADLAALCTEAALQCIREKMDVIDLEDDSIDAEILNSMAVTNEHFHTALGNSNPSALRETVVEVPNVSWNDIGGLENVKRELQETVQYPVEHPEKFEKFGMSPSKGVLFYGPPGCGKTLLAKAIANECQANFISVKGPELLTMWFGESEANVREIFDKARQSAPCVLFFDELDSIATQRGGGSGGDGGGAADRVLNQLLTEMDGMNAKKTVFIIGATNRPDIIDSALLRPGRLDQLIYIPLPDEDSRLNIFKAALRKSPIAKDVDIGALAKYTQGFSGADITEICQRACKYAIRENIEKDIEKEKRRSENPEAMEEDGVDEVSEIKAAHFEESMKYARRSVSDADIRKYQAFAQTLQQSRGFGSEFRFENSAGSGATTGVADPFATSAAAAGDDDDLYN
B1: PLXNB1 RBD 1746-1852 (Homo sapiens, UniProt O43157); sequence looked up; chain YRPLTLNALLAVGPGAGEAQGVPVKVLDCDTISQAKEKMLDQLYKGVPLTQRPDPRTLDVEWRSGVAGHLILSDEDVTSEVQGLWRRLNTLQHYKVPDGATVALVPC
B2: Cacna1c 1647-1777 (Mus musculus, UniProt Q01815); sequence looked up; chain NALSLQAGLRTLHDIGPEIRRAISGDLTAEEELDKAMKEAVSAASEDDIFRRAGGLFGNHVTYYQSDSRGNFPQTFATQRPLHINKTGNNQADTESPSHEKLVDSTFTPSSYSSTGSNANINNANNTALGR
B3: CFH 1108-1231 S1191L/V1197A (Homo sapiens, UniProt P08603); sequence looked up; chain KCGPPPPIDNGDITSFPLSVYAPASSVEYQCQNLYQLEGNKRITCRNGQWSEPPKCLHPCVISREIMENYNIALRWTAKQKLYLRTGESAEFVCKRGYRLSSRSHTLRTTCWDGKLEYPTCAKR
B4: IGSF10 29-281 (Homo sapiens, UniProt Q6WRI0); sequence looked up; chain CPRRCACYMPTEVHCTFRYLTSIPDSIPPNVERINLGYNSLVRLMETDFSGLTKLELLMLHSNGIHTIPDKTFSDLQALQVLKMSYNKVRKLQKDTFYGLRSLTRLHMDHNNIEFINPEVFYGLNFLRLVHLEGNQLTKLHPDTFVSLSYLQIFKISFIKFLYLSDNFLTSLPQEMVSYMPDLDSLYLHGNPWTCDCHLKWLSDWIQEKPDVIKCKKDRSPSSAQQCPLCMNPRTSKGKPLAMVSAAAFQCAK
B5: Kcnh1 7-136 (Mus musculus, UniProt Q60603); sequence looked up; chain RRGLVAPQNTFLENIVRRSNDTNFVLGNAQIVDWPIVYSNDGFCKLSGYHRAEVMQKSSACSFMYGELTDKDTVEKVRQTFENYEMNSFEILMYKKNRTPVWFFVKIAPIRNEQDKVVLFLCTFSDITAF
B6: EFR3B 716-787 (Homo sapiens, UniProt Q9Y2G0); chain VPAEEITYETLKKAIVDSVAVEEQERERRRQVVEKFQKAPFEEIAAHCGARASLLQSKLNQIFEITIRPPPS
B7: CFH 1108-1231 W1183L (Homo sapiens, UniProt P08603); sequence looked up; chain KCGPPPPIDNGDITSFPLSVYAPASSVEYQCQNLYQLEGNKRITCRNGQWSEPPKCLHPCVISREIMENYNIALRLTAKQKLYSRTGESVEFVCKRGYRLSSRSHTLRTTCWDGKLEYPTCAKR
B8: PUX5 301-421 (Arabidopsis thaliana, UniProt Q7Y175); chain KNPFQGVGRTLGASGSGSSSAPQASSAPMNVAPAPSRGLVVDPAAPTTSIQLRLADGTRLVSRFNNHHTVRDVRGFIDASRPGGSKEYQLLTMGFPPKQLTELDQTIEQAGIANAVVIQKF
B9: Lep (Mus musculus, UniProt P41160); sequence looked up; chain VPIQKVQDDTKTLIKTIVTRINDISHTQSVSAKQRVTGLDFIPGLHPILSLSKMDQTLAVYQQVLTSLPSQNVLQIANDLENLRDLLHLLAFSKSCSLPQTSGLQKPESLDGVLEASLYSTEVVALSRLQGSLQDILQQLDVSPEC
B10: SOX11 HMG box (UniProt P35716); chain IKRPMNAFMVWSKIERRKIMEQSPDMHNAEISKRLGKRWKMLKDSEKIPFIREAERLRLKHMADYPDYK
B11: PUX4 (Arabidopsis thaliana, UniProt Q8RWU7); chain MSSKDKKPSKPSSSRGGIRTLSDLNRRSGPDSDSDSDGPQEYYTGGEKSGMLVQDPSKKDDVDEIFNQARQLGAVEGPLEPPPSSRSFTGTGRLLSGENVPTGNQQPEPVVHNIVFWSNGFTIDDGPLRKLDDPENASFLESIRKSECPKELEPADRRAPVHVNLMRKEEKCPERQKRRVSFQGVGRTLGGSNEGSGSSSPVAPDSAPIPIQTEPAPSQSLVIDETVPTTSIQLRLADGTRLVAKFNHHHTVNDIRGFIDSSRPGASLNYQLQTMGFPPKPLTDLTQTIEEAGLANSVVLQKF
B12: STAMBPL1 C402S (Homo sapiens, UniProt Q96FJ0); sequence looked up; chain MDQPFTVNSLKKLAAMPDHTDVSLSPEERVRALSKLGCNITISEDITPRRYFRSGVEMERMASVYLEEGNLENAFVLYNKFITLFVEKLPNHRDYQQCAVPEKQDIMKKLKEIAFPRTDELKNDLLKKYNVEYQEYLQSKNKYKAEILKKLEHQRLIEAERKRIAQMRQQQLESEQFLFFEDQLKKQELARGQMRSQQTSGLSEQIDGSALSCFSTHQNNSLLNVFADQPNKSDATNYASHSPPVNRALTPAATLSAVQNLVVEGLRCVVLPEDLCHKFLQLAESNTVRGIETCGILCGKLTHNEFTITHVIVPKQSAGPDYCDMENVEELFNVQDQHDLLTLGWIHTHPTQTAFLSSVDLHTHCSYQLMLPEAIAIVCSPKHKDTGIFRLTNAGMLEVSASKKKGFHPHTKEPRLFSICKHVLVKDIKIIVLDLR
B13: C1S 438-688 S632A (Homo sapiens, UniProt P09871); chain IIGGSDADIKNFPWQVFFDNPWAGGALINEYWVLTAAHVVEGNREPTMYVGSTSVQTSRLAKSKMLTPEHVFIHPGWKLLEVPEGRTNFDNDIALVRLKDPVKMGPTVSPICLPGTSSDYNLMDGDLGLISGWGRTEKRDRAVRLKAARLPVAPLRKCKEVKVEKPTADAEAYVFTPNMICAGGEKGMDSCKGDAGGAFAVQDPNDKTKFYAAGLVSWGPQCGTYGLYTRVKNYVDWIMKTMQENSTPRED
Chain of UniProt P26039 (whole entry, looked up): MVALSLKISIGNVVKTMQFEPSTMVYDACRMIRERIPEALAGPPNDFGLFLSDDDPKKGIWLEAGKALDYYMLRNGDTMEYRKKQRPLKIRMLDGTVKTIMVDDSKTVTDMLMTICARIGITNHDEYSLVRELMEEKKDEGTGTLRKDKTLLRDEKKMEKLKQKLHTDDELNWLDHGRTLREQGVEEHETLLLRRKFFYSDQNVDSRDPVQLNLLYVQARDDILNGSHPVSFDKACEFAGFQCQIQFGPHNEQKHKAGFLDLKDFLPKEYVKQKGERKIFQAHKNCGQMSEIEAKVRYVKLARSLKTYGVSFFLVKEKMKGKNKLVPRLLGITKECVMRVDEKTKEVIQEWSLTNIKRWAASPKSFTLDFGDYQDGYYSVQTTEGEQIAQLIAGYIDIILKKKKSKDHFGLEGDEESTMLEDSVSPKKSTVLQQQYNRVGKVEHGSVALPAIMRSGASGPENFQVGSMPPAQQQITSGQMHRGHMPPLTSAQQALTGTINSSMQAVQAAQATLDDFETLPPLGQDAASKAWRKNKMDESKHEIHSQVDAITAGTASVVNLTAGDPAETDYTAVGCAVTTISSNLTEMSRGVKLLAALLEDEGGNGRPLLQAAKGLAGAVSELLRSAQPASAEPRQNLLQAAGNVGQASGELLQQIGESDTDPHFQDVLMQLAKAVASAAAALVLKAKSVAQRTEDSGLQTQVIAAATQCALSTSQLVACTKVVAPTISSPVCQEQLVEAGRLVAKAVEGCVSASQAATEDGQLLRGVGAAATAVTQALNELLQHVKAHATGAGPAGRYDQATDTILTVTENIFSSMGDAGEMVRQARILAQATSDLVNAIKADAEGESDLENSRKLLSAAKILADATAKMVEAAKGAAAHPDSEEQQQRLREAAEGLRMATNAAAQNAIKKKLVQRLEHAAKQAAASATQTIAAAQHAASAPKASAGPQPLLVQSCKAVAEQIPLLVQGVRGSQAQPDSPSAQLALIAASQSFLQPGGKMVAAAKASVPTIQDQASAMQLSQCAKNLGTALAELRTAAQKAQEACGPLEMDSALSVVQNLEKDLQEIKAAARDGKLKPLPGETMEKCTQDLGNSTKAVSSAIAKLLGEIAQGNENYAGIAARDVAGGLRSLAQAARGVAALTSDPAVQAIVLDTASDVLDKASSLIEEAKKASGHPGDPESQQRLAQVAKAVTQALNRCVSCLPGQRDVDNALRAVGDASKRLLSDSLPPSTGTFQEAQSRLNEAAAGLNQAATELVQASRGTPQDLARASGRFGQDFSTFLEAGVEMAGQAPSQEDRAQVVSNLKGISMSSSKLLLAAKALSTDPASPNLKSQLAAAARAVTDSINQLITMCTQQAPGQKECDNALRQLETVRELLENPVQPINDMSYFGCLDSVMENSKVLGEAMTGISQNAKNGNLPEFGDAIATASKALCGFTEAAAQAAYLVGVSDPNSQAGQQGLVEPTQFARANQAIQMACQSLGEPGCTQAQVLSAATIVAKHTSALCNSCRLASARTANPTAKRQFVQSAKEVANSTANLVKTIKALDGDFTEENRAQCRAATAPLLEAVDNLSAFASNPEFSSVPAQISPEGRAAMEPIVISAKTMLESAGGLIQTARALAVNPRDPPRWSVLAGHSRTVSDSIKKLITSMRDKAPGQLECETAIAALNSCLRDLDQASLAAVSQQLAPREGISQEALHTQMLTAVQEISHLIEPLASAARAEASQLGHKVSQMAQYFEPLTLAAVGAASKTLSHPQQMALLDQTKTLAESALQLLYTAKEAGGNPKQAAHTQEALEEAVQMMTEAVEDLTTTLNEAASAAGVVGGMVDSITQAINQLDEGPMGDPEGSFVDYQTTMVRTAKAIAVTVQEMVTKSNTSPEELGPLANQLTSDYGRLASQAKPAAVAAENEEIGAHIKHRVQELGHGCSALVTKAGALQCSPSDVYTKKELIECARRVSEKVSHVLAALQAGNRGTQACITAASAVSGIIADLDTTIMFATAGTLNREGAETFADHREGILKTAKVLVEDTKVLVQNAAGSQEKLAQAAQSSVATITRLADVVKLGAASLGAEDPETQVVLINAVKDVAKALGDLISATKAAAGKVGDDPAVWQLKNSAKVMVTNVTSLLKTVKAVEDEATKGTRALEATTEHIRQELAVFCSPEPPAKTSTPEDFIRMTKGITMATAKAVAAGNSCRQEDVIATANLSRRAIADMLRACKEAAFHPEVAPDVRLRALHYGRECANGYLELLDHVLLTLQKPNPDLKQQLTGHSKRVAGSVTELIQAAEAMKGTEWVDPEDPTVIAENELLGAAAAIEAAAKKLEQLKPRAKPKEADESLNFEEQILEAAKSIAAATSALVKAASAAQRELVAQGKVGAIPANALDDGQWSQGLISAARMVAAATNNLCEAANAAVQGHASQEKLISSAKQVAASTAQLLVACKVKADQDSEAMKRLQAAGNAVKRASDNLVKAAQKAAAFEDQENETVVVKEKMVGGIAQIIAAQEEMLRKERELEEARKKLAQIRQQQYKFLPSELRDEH
Chain of UniProt P01024 (whole entry, looked up): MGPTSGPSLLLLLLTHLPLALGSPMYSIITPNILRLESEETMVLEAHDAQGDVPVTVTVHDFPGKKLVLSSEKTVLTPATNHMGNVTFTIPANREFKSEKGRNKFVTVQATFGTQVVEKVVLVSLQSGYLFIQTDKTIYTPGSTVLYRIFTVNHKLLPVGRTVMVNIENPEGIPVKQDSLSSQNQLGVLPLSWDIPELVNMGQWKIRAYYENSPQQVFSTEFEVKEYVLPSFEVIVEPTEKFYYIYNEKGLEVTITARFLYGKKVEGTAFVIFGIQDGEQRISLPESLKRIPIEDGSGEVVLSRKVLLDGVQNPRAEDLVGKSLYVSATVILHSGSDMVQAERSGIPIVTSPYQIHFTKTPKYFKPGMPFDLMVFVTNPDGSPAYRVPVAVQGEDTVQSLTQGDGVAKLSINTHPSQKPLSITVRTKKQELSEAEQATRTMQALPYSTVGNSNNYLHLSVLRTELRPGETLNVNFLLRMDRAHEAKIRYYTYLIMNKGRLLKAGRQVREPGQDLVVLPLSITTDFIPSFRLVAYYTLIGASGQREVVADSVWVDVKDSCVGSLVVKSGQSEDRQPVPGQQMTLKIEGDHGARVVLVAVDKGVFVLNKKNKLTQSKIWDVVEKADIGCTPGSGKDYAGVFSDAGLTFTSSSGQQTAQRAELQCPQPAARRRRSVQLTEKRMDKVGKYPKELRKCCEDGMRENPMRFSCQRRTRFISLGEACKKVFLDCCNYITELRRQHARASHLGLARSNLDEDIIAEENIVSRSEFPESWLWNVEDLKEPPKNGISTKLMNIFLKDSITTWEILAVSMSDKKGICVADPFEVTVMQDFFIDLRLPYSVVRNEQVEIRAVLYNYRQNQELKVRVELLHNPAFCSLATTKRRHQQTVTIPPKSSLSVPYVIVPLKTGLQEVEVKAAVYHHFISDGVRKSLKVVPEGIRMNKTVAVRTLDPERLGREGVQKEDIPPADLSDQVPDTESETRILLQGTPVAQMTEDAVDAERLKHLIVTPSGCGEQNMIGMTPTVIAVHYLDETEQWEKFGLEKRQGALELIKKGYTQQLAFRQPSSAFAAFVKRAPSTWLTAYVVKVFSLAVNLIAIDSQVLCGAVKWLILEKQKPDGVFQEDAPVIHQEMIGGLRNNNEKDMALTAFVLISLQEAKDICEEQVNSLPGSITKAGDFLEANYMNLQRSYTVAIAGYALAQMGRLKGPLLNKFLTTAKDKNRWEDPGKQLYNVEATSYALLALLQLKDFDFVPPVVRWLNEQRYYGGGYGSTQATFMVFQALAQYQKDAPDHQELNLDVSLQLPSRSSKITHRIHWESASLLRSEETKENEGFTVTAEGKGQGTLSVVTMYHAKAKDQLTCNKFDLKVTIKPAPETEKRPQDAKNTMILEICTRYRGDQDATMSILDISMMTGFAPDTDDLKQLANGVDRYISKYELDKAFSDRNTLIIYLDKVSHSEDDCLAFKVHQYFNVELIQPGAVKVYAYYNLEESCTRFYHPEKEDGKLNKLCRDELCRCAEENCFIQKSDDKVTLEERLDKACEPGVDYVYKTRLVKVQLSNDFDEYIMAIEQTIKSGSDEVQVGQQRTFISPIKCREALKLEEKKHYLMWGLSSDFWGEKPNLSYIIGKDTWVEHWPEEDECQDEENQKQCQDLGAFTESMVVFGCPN

| Substance | tested on | assay | test system | setting | how to read | endpoint | result |
| --- | --- | --- | --- | --- | --- | --- | --- |
| KLLITIHDRKEFAKFEEERARAKWDTANNPLYKEATSTFTNITYRGT (ITGB3 742-788 (Homo sapiens, UniProt P05106); sequence looked up) | Tln1 309-405 (Mus musculus, UniProt P26039) | NMR titration |  |  |  | Kd | 273 µM |
| LVGWHRSYYTWN (LVG-TR3 peptide) | CD274 19-238 (Homo sapiens, UniProt Q9NZQ7) | SPR | peptide |  |  | Kd | 1.98 µM |
| B1 (PLXNB1 RBD 1746-1852) | RND2 1-227 (Homo sapiens, UniProt P52198) | SPR |  |  |  | Kd | 1.39 ± 0.39 µM |
| VEGFA (Homo sapiens, UniProt P15692) | FLT1 27-758 (Homo sapiens, UniProt P17948) | SPR |  |  |  | Kd | 0.00018 µM |
| B2 (Cacna1c 1647-1777) | Jph2 1-440 S165H (Mus musculus, UniProt Q9ET78) | ITC |  |  |  | Kd | 7.32 µM |
| PKPRPPRPLPVAP (PIK3R1 87-99 (Homo sapiens)) | FYN 82-144 (Homo sapiens, UniProt P06241) | MST | peptide |  |  | Kd | 37.6 ± 6.1 µM |
| WWP2 C506A/C822S/C802S/C750S/C666S/C588S/C577S, N-terminal Cy5 label (Homo sapiens) (sequence not shown) | UBE2D2 (Homo sapiens, UniProt P62837) | MST |  |  |  | Kd | 38.3 ± 3.2 µM |
| GRGDLGRLKK (TGFB3 260-269; aminocaproic acid, FITC label) | ITGAV/ITGB8 ectodomain, soluble, clasped | fluorescence polarisation | peptide |  |  | Kd | 0.0125 µM |
| EEQWAREIGAQLRRMADDLNAQYER (BBC3 BH3 peptide 68-92 (Homo sapiens); N-acetyl, C-terminal amide) | BCL2L1 fragment (Homo sapiens) | ITC | peptide |  |  | Kd | 0.003 µM |
| petF ferredoxin (Synechocystis sp. PCC 6803, UniProt P27320) | narB (Synechococcus sp. PCC 7942, UniProt P39458) | UV-visible difference titration |  |  |  | Kd | 7.8 ± 2.1 µM |
| FGB dimer (Homo sapiens) | CDH2 EC5 440-551 (Homo sapiens) | SPR |  | Langmuir fit, together with: CaCl2 |  | Kd | 0.0303 µM |
| GRGRGRGRGRGRGRGRGRGRGRGRGRGRGRGRGRGRGRGR ((GR)20 20 repeats; TAMRA label N-terminal) | FUS 1-371 (Homo sapiens, UniProt P35637) | fluorescence polarisation | peptide |  |  | Kd | 0.0614 ± 0.0136 µM |
| B3 (CFH 1108-1231 S1191L/V1197A) | C3 996-1303 (Homo sapiens, UniProt P01024) | SPR |  |  |  | Kd | 5.2 ± 0.2 µM |
| B4 (IGSF10 29-281) | GAS1 (Homo sapiens, UniProt P54826) | ITC |  |  |  | Kd | 0.376 µM |
| KLLMIIHDRREFAKFEKEKMNAKWDTQENPIYKSPINNFKNPNYGRKAGL (ITGB1 752-801 (Homo sapiens, UniProt P05556-5); sequence looked up) | Tln1 309-405 (Mus musculus, UniProt P26039) | NMR titration |  |  |  | Kd | 95 µM |
| PKLPPKTYKREH (SOS1 proline-rich peptide, 1303-1314) | GRB2 1-58 (Homo sapiens, UniProt P62993) | NMR titration | peptide |  |  | Kd | 660 µM |
| ptsH fragment (Escherichia coli) (sequence not shown) | ptsI fragment (Escherichia coli) | NMR titration |  | with BSA |  | Kd | 65 ± 4.7 µM |
| B5 (Kcnh1 7-136) | Kcnh1 552-708 (Mus musculus, UniProt Q60603) | SPR |  | 25 °C, two-state model, together with: chlorpromazine 10 µM |  | Kd | 1.8 µM |

| Substance | tested on | assay | test system | setting | how to read | endpoint | result |
| --- | --- | --- | --- | --- | --- | --- | --- |
| GSGAGPETLV | human MAGI1-2/6 PDZ construct (MBP fusion) | automated holdup | peptide, crude extract | concentration not given, corrected by standard peak, unit not given | baseline: biotin control resin, higher = stronger binding | binding intensity | 0.211 |
| B6 (EFR3B 716-787) | TTC7B/FAM126A FAM126A 1-308 | BLI |  |  |  | Kd | 0.000405 µM |
| SCN2A IQ region (Homo sapiens) (sequence not shown) | CALM1 (Homo sapiens, UniProt P0DP23) | fluorescence titration |  | pH 7.4, 22 °C, together with: calcium |  | Kd | 0.0198 µM |
| F9 heavy and light chains, activated (UniProt P00740) | F8 activated, A1/A2/A3-C1-C2 R336Q/R562Q (Homo sapiens) | FXa generation, factor Xa generation rate |  | together with: FX |  | Kd | 0.0015 µM |
| B7 (CFH 1108-1231 W1183L) | C3 C3dg 955-1303 (Homo sapiens, UniProt P01024) | SPR |  |  |  | Kd | 5.3 ± 0.2 µM |
| LPDTDDRHRIEEKRKRTYETFKSIMKKSPFNGP (Rela 289-321 (Mus musculus, UniProt Q04207); sequence looked up) | NFKBIA 67-206 (Homo sapiens, UniProt P25963) | ITC | peptide |  |  | Kd | 0.8 ± 0.064 µM |
| B8 (PUX5 301-421) | CDC48A | ITC |  | 25 °C |  | Kd | 3.2 ± 0.4 µM |
| GCVRLHESCLGQQVPCCDPAATCYCYGRGDNDLRCYCR (designed binder) | ITGAV/ITGB3 U87MG cells (Homo sapiens) | flow cytometry | designed binder, U87MG |  |  | Kd | 0.0018 µM |
| B9 (Lep) | Lepr 22-839 (Mus musculus, UniProt P48356) | SPR |  |  |  | Kd | 4000 µM |
| B10 (SOX11 HMG box) | SAMHD1 fragment (Homo sapiens) | microscale thermophoresis |  |  |  | Kd | 3.2 µM |
| EPHA7 soluble recombinant (Homo sapiens) | LILRB5 24-458 (Homo sapiens, UniProt O75023) | BLI |  |  |  | Kd | 0.564 µM |
| B11 (PUX4) | CDC48A | BLI |  | 25 °C |  | Kd | 0.56 ± 0.02 µM |
| B12 (STAMBPL1 C402S) | UBB mature (UniProt P0CG47) | ITC |  |  |  | Kd | 12.4 ± 3.2 µM |
| GSGAGSETKM | human MAGI1-3/6 PDZ construct (MBP fusion) | automated holdup | peptide, purified PDZ protein | concentration not given, unit not given | baseline: biotin control resin, higher = stronger binding | binding intensity | -0.159 |
| NEDIDQMFSTLLGEMDLLTQS (RIAM talin-binding site peptide 5-25 (Mus musculus, UniProt Q8R5A3); FITC label; sequence looked up) | Tln1 1357-1657 (Mus musculus, UniProt P26039) | fluorescence polarization | peptide | together with: FITC-labeled peptide 20 nM |  | Kd | 6.6 µM |
| histone H3 peptide fragment, K14 acetyl-lysine | DPF2 270-391 (Homo sapiens, UniProt Q92785) | ITC |  |  |  | Kd | 0.65 µM |
| B13 (C1S 438-688 S632A) | SERPING1 111-500 H334A/Q338A (Homo sapiens, UniProt P05155) | SPR |  | together with: Ca2+ |  | Kd | 7.3 µM |
